Experimental data pooled from the literature.
Lines come from different studies, so protocols differ. ± marks the error that the study gave.
Cell line: NCI/ADR-RES

`COc1ccc(C2=Nn3c(NN=C4C(=O)N(Cc5ccccc5)c5ccc(Cl)cc54)nnc3SC2)cc1` gave an inhibition of 13% (cell growth or viability, SRB; 10 µM).
`CC(=C(c1ccc(O)cc1)c1ccc(Cl)cc1)c1ccc(Cl)cc1` has a GI50 of 690 nM (cell growth or viability).
For `COc1cc(CNC(=O)C[C@H](C)CCC=C(C)C)ccc1OCc1cn(-c2ccc(Cl)cc2Cl)nn1`, the growth was 32.9% (SRB; 10 µM, 48 h).
`C=C1C(=O)OC2C1CCC1(C)CC1CCC1(C)OC21` (stereo not shown) has an IC50 of 12000 ± 2500 nM (cell growth, inhibitor, Alamar blue).
With `CC(=O)OC[C@H]1O[C@@H](Sc2sc(C(=O)c3ccc(C)cc3)c(N)c2-c2nc3ccccc3s2)[C@H](OC(C)=O)[C@@H](OC(C)=O)[C@@H]1OC(C)=O` the growth was 62.9% (SRB; 10 µM, 48 h).
`CC(Cc1ccc(Cl)cc1)=C(c1ccc(Cl)cc1)c1ccc(OCCN(C)C)cc1` gave a GI50 of 4800 nM (cell growth or viability).
For `COc1cc(CNC(=O)C[C@H](C)CCC=C(C)C)ccc1OCc1cn(-c2cccc([N+](=O)[O-])c2)nn1`, the growth percent was 3.67% (sulforhodamine B; 10 µM, 48 h).
For `CC/C=C\C/C=C\C/C=C\C/C=C\C/C=C\C/C=C\CCC(=O)Nc1ccn(C2OC(CO)C(O)C2(F)F)c(=O)n1` (stereo not shown), the GI50 was 33.8 nM (cell growth or viability, SRB).
For `COc1cc(CNC(=O)C[C@H](C)CCC=C(C)C)ccc1OCc1cn(-c2ccccc2)nn1`, the growth was 81.9% (SRB; 10 µM, 48 h).
The growth of `CC(=O)OC[C@H]1O[C@@H](Sc2sc(C(=O)c3ccc(Br)cc3)c(N)c2-c2nc3ccccc3s2)[C@H](OC(C)=O)[C@@H](OC(C)=O)[C@H]1OC(C)=O` is reported as 88.3% (SRB; 10 µM, 48 h).

Excerpt of the above:
For `COc1cc(CNC(=O)C[C@H](C)CCC=C(C)C)ccc1OCc1cn(-c2ccccc2)nn1`, the growth was 81.9% (SRB; 10 µM, 48 h).
